# Measured values collected from several papers.
# Numbered parts are unrelated; each lists some results of a single study. Changes are numbered by the printed parent chain.

# Series 1 — target: CCNA2, cyclin fold, Cln2 fusion (human); technique: yeast growth competition, sequencing; sample: yeast; notes: strong parent motif; reference: not given; reading: higher = stronger binding
# Starting sequence: PKMYT1 docking peptide (human); SFEPRNLLSLFED
Variant,normalised enrichment score
SFEPRNLLSPFED [L10P],-1.49
SFEPRNLLSLIED [F11I],0.115
SFEPRELLSLFED [N6E],0.579
SFEPRNDLSLFED [L7D],-0.812
EFEPRNLLSLFED [S1E],1.92
SFEPRNRLSLFED [L7R],-0.786
SFEPMNLLSLFED [R5M],0.886
SFLPRNLLSLFED [E3L],3.93
SFEPRNLLSLFEL [D13L],2.4
SFEPRNLISLFED [L8I],1.88
SYEPRNLLSLFED [F2Y],2
SFEPLNLLSLFED [R5L],0.362
IFEPRNLLSLFED [S1I],2.62
SFEVRNLLSLFED [P4V],-0.656
SFEPRNLLSLAED [F11A],0.115
SFEPRNLLSLFER [D13R],3.21
SFNPRNLLSLFED [E3N],2.84
SFEPRNLLSVFED [L10V],1.58

# Series 2 — technique: RNA Bind-n-Seq; form: RNA; sample: in vitro; tested at: 200 nM; notes: whole 134-nt RNA, ends assumed; with: 150 mM KCl; reference: input library; reading: higher = stronger binding
# Target: Ras GTPase-activating protein-binding protein 1, full length (G3BP1, Homo sapiens, UniProt Q13283)
# UniProt Q13283, sequence (whole entry, looked up): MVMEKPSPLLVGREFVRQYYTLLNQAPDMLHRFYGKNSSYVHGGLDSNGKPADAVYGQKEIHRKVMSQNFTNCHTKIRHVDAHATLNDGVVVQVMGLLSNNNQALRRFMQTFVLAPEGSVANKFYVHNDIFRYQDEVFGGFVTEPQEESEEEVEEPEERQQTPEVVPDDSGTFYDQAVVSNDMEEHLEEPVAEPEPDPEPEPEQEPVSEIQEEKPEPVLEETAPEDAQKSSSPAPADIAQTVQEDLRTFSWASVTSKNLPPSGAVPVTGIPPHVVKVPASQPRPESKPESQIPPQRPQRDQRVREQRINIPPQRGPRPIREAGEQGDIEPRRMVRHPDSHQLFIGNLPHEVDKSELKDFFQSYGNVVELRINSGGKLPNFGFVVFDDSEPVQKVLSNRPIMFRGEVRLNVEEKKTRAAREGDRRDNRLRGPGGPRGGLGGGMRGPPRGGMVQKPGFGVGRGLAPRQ
Oligonucleotide,log2 enrichment
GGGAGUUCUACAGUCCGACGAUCUUGGAAGAGACCAGUGAAAUUCGAUCUGACUUGGAGCAGUUAGACCACGAGGUUAAGGAGGCUCAGACACUGUGCGAUGAACUCUCAGUGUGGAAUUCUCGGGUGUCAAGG,0.625
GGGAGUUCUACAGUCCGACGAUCCUCAAGUCCUGUGCUACACAUCGUAUGUACCGAAUCGGUGGAAAGGUUUUUGGAAAGUAUUAUGUUACGCCGUUCGGAUCUGCACUUCCAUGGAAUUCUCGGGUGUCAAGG,-0.482
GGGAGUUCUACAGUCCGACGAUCUGGGAGGUGGAUUUUGGUUAUUUUUUUAGCUCAUUUCCAGGGGUGGGAAUUUUUUUUUAAUAUGUGUCAUGAAUAAAGUUGUUUUUGAAAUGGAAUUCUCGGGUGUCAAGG,0.15
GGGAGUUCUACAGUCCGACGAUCUCCUGUGCUACACAUCGUAUGUACCGAAUCAAACCCCCCCAAACCCCCAAAUUUUUAAAAAAGUAUUAUGUUACGCCGUUCGGAUCUGCAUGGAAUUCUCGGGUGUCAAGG,-0.00108
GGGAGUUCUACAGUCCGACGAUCUGGCCCUGGUGGCAUGCGGGGAGGAAGAGGUGGCCACAUGGAUCGUGGUGGUCCCGGUGGAAUGUUCAGAGGUGGCCGUGGUGGAGACAGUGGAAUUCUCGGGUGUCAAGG,0.182
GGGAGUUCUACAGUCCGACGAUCCAAGUCCUGUGCUACACAUCGUAUGUACCGAAUCGGGUUUGGGUUUGGGUUUGGGAAAGUAUUAUGUUACGCCGUUCGGAUCUGCACUUCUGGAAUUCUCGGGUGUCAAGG,0.798
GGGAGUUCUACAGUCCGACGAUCCAAGUCCUGUGCUACACAUCGUAUGUACCGAAUCGGUUUUUGGAAAAAAAGGUGGAAAGUAUUAUGUUACGCCGUUCGGAUCUGCACUUCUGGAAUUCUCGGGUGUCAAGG,-0.808
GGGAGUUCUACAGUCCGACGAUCAGUCCUGUGCUACACAUCGUAUGUACCGAAUCGGGGUUUUUGGUUUUUGGUUUUUGGAAAGUAUUAUGUUACGCCGUUCGGAUCUGCACUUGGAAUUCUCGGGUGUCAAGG,-1.17
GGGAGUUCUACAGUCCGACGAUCUCCUGUGCUACACAUCGUAUGUACCGAAUCGGGGUUUUUGGGGUUUGGGGAAAAAGGGGAAAGUAUUAUGUUACGCCGUUCGGAUCUGCAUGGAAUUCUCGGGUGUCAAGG,0.625
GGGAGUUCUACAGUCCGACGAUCACCAUGCAGGAGGGCAUCUUUGGGAAGUGGGGCAAGGGGGGGAUAGGGAGGGGGGUAACACUUUGGGAACAGGUGGUCCCAGGUCGUUUCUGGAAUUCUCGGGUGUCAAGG,1.52

# Series 3 — technique: competition protein-binding microarray; form: double-stranded DNA, one strand shown; sample: in vitro; tested at: 2 µM; with: Cbf1 competitor, 0.05 µM; reading: higher = stronger binding
# Target: Phosphate system positive regulatory protein PHO4, full length, GST-tagged (PHO4, Saccharomyces cerevisiae, UniProt P07270, residues 1-312)
# Notes: whole 60-bp probe, lowest competitor level
# Target sequence (chain): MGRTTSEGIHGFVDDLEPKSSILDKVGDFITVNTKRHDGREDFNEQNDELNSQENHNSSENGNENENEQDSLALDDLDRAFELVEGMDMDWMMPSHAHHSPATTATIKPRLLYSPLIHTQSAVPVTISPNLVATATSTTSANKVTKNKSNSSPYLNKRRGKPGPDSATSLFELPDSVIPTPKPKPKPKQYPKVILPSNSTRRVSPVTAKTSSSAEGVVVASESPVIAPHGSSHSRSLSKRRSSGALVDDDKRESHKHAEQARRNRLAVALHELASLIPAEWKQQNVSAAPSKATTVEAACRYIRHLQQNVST
Oligonucleotide,fluorescence intensity
ATTTGGTTCGAGCGTCATGATTGCTAAGGAAGTTAAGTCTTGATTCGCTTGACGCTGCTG,3740 a.u.
GTAGGAGCCCCTTAGGGCGTGCCAGTAGTTTAAAGCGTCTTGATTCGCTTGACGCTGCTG,7870 a.u.
AGGACGACTGCTTTACTCGTGAAAATGGAACACAAGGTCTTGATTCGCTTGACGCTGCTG,4770 a.u.
GAATCAAAGGGTTTATCCGTGTCTGAACGCAATGTGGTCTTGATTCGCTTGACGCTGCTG,4770 a.u.
GGAAACTCTGGCGGCCACGTGAATTCAAATTACAACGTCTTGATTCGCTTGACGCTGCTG,12700 a.u.
AAATGCCGCTTAGAGAACGTGGAAGAAGAGTTTGATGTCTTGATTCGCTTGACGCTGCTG,13900 a.u.
TTCTTTATCTGATGATTCGTGATGGTCTAAATCTGCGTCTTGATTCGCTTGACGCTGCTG,4200 a.u.
AACAGGCTTGGATGGTACGTGCTTTCCCTTGTCGAGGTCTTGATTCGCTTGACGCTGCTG,7510 a.u.
CCAACCTGGCTTGCCCACGAGGATGGCTTTCTGGCTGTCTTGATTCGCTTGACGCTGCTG,13200 a.u.
CGGGGTTAAGTTTGGGTAGTGGGTGGCTTGCAGCAGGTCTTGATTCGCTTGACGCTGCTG,4780 a.u.
CATACCCAACCTTGTCACCAAACTTAAGATATTTGTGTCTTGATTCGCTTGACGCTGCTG,3280 a.u.
GAGCAGCGCCCATACAATGTGCGGGCAAGATTTGCCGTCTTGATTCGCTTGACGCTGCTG,6340 a.u.
CTAACGAAGGTTTGCCCCGTGGGTGACAAGCCAAGTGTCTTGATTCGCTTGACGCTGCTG,11200 a.u.
ATAGTGGGCAGACTCCACGTGCAAATGACAGCCAGGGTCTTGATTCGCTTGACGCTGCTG,16000 a.u.
CAATTAGAAAAACAGCACGTGGAGGTATATAGAGAGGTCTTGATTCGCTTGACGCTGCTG,19100 a.u.
TGCGCAACAACTTGCCGGGTGGGTGTATGTCTAGAAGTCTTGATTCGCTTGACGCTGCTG,4300 a.u.
ACTGCAAGCGACTATCATGTGATACGATAGCCGGGTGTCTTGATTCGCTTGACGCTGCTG,6930 a.u.
TTTGGCGCCAATGAACTCGTGGTCGGGACCTCCACCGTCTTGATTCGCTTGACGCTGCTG,7980 a.u.

# Series 4 — technique: RNA Bind-n-Seq; form: RNA; sample: in vitro; tested at: 365 nM; reference: no-protein control; reading: higher = stronger binding
# Target: RNA binding protein fox-1 homolog 2, RRM domain, GST-SBP tag (RBFOX2, Homo sapiens, UniProt O43251-10, residues 100-194)
# Notes: natural RNA segment, single round, ends assumed
# Residues (chain): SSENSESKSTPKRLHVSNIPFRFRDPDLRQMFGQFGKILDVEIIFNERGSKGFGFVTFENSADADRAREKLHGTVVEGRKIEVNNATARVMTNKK
Oligonucleotide,RBNS enrichment (R)
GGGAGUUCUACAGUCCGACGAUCACGGAAUCAUUUUAAUGUGUUCCUCAGAACGUAUGUAUUGACUUCUACAAUAAAUGACUGGCUGGUGCUUUGGUGUGCUGUUCAUUGAGUGAAUGCUAGAAGCCACACUGUGGAAUUCUCGGGUGCCAA,0.431
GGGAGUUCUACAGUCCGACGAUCCACCCCACUCCCUGAUCUCACAAAAGUGCGAGUUUCCAGUCCUGACUAACUAGGGCUCCAGUCAGUAUUCCCCUGGCCGGCUUCCCAGAUGCCCUGGACGGCACUCUGUUUGGAAUUCUCGGGUGCCAA,0.437
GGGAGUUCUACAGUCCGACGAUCCAAAGAUAAAGUUGUAUUUUUUUCUUAGAAUGGCCUUUAAUUCCCUGUGGCAAUUACAGUUUUUGACUUUUCCAUGUGAGAAUAAGGCCUUGGUAUUUCCCUAAGGGCAGUGGAAUUCUCGGGUGCCAA,0.398
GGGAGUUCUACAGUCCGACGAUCGCAAGCUCAUCCGCACAGAAGAGGGAAGAGGGAGAUGCGUGGGGAAACUGAGUGAGUCGGAUUCCUCCAGGCCAGGUCUUCCCAGAACAGAGUCAGCCUCUAGUAGACCCUGGAAUUCUCGGGUGCCAA,0.428
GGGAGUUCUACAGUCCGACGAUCGAGGCUGUGUGGGCGGGUGCAUGUGCACCGUGGAGUGCACACAAGGGGACUGUCAAUCACAGGGUUUCAUAUGUUGUCAUUGUCACUCUUUCACAUUUUUGUACAUCAGUUGGAAUUCUCGGGUGCCAA,0.752
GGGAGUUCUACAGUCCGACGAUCUACAUCUGAGUUCAAAUGUCUUCCCAGGCUCAGGGACCUCCAUUCCUUGAGAUUGUCUUGGCAUGGCCCAGCCCUGCCUCAUGGGAUGGACAAUGCAUGGGGUGGUCUUUUGGAAUUCUCGGGUGCCAA,0.158
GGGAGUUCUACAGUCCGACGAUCUCCAAAAGGCUAGGCCAAUAAGAGGAGGCCAGGCUCUGUGGUCCCUUGGUGACAUCAUUCCAAACCUGGGGUAGCUGCCGCCCCCUGUGUCAGCCACAUACCCCCUCUCGUGGAAUUCUCGGGUGCCAA,0.147
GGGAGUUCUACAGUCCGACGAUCGCCCUUGGGUGCCAGCUCAGUGGGUGUGGGGAUCACAUGAGGUGGCUCAUGAGGACACACUCUGGAAGUCGAGGGGCUGCCACGUGCAGAGGAAGUUCCCGGCCUGGGGGUGGAAUUCUCGGGUGCCAA,0.448
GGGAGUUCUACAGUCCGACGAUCCCACACAAAUUGAUCUUCUAUCAUCUUGGAAUCUGAAUUGCAGGGAGGAGCAGCAUGUAAGACGACCGUUUAAUUCAGGCAUUCCGAAGGCAUGAGCGCAUGGAUUCUGUUGGAAUUCUCGGGUGCCAA,29.8
